Measurements gathered from unrelated publications.
Every numbered part comes from another study and shows a few of its results, in no order.

Set 1 — method: universal PBM; molecule type: double-stranded DNA, one strand shown; medium: in vitro; tested at: not given; direction: higher = stronger binding
Target: Sal-like protein 4, full length isoform B (SALL4, Homo sapiens, UniProt Q9UJQ4-2, residues 1-616)
Setting: 8-mer, flanks averaged, mean of replicates
Construct (chain): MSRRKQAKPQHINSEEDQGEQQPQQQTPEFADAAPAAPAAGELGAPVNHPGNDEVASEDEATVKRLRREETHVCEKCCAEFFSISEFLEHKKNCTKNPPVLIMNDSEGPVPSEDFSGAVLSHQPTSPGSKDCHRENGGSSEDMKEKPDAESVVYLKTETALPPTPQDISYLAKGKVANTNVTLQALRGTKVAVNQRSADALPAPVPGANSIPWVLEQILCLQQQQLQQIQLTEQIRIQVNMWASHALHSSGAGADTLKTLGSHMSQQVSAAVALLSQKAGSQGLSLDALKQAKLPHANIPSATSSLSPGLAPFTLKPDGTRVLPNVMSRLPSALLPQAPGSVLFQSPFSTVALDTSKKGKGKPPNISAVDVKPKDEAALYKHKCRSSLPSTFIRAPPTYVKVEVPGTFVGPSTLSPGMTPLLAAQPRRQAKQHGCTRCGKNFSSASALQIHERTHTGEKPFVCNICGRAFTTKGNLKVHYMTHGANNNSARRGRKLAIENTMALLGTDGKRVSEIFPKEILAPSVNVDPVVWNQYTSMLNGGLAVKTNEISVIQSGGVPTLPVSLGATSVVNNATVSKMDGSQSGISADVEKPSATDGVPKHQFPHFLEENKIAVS
Sequence | E-score
CCTGTCAC | -0.217
ATTATCTA | 0.29
TCCGTGCA | -0.0768
GATTTCCA | 0.0212
CCACAGAA | 0.0302
ATTCGAAG | 0.0116
ATGCAAAT | 0.193

Set 2 — method: aptamer microarray, sandwich; molecule type: DNA with 2'F-ANA; medium: in vitro; tested at: 200 nM; added: Cy3 exosite-II aptamer, 400 nM; direction: higher = stronger binding; sequence: GGTTGGTGTGGTTGG
Target: Prothrombin, mature alpha-thrombin (F2, Homo sapiens, UniProt P00734)
Setting: whole 15-mer aptamer, many near background
Modification | mean fluorescence intensity
2'F-ANA at 3 6 7 8 10 14 15 | 415 a.u.
2'F-ANA at 1 4 8 9 15 | 161 a.u.
2'F-ANA at 6 7 9 10 11 13 | 138 a.u.
2'F-ANA at 1 3 7 12 13 | 539 a.u.
2'F-ANA at 1 2 3 6 7 15 | 215 a.u.
2'F-ANA at 1 3 4 5 8 9 10 11 12 13 14 | 57.7 a.u.
2'F-ANA at 3 5 6 8 12 15 | 251 a.u.
2'F-ANA at 1 2 7 8 9 14 15 | 58.4 a.u.

Set 3 — method: protein-binding microarray; molecule type: double-stranded DNA, one strand shown; medium: in vitro; tested at: not given; direction: higher = stronger binding
Target: Max-binding protein MNT, bHLH-zipper, MAX partner unstated (MNT, Homo sapiens, UniProt Q99583, residues 220-300)
Setting: k-mer, scored over probes, only values ≥0.25
Residues (chain): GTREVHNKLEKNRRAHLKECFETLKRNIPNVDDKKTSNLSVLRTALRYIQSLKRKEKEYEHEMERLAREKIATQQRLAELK
Sequence | E-score
CACGTGTC | 0.496
CGCCGCGC | 0.288
ATGGCACC | 0.252
ATGTCACG | 0.35

Single results of other studies
Substance | target | test | system | setting | scale | quantity | value
PhoQ, residues 284 288 289 292 302 303 SMMNNA | PhoP, residues 12 14 15 18 19 QWHVF (Escherichia coli, UniProt P23836) | Sort-seq, refers to: YFP reporter | E. coli | PhoQ-PhoP variant library, added: 10 µM Mg2+ | relative to: high Mg2+ state, higher = stronger signaling | fold induction | 6

For quick reference, copied from above (set 2):
Modification | mean fluorescence intensity
2'F-ANA at 1 4 8 9 15 | 161 a.u.
2'F-ANA at 1 2 3 6 7 15 | 215 a.u.
